Assay results pooled from the literature.
“And” joins repeats or separate records; there may be more than shown. ± gives the spread as reported.

For `COc1cc(N2CCC(N3CCN(C)CC3)CC2)ccc1Nc1ncc(Cl)c(Nc2ccccc2P(C)(C)=O)n1`, the tumour volume was 163 mm3 and 305 mm3 and 155 mm3 and 294 mm3 and 313 mm3 (nude mice, NCI-H3122 xenograft; intraperitoneal, 10 mg/kg every other day, day 13).
`C[C@@H]1COCCN1c1cc([C@]2(O)C[C@H]3CC[C@@H](C2)O3)c2cnn(-c3cc[nH]n3)c2n1`: “tumour growth inhibition” 107 ± 1.5% (ATM-deficient gastric cancer PDX mice; 10 mg/kg once daily for 7 days, day 42).
The tumour uptake of `O=c1[nH]c(=O)n([C@@H]2O[C@H](CO)[C@@H](O)[C@@H]2F)cc1CCCC[18F]` is reported as 0.16 ± 0.03 %ID/g (nude mice, RG2 tumour, HSV1-tk expressing RG2 tumour; 2 h post injection).
`C=CC(=O)Nc1cc(Nc2nccc(Nc3cc(Cl)c(F)cc3C(C)(C)O)n2)c(OC)cc1N1CC[C@@H](N(C)C)C1` gave a tumour regression of 87.5% (NCI-H2073 EGFR SVD knock-in xenograft, BALB/c nude mice; oral, 50 mg/kg twice daily, 21 days, regression if TGI above 100 %).
For `CCNc1nc2c(c(N3CC(=O)Nc4cc(OC)ccc43)n1)CCC2`, “tumour weight decrease” read 47.4% (mice, A-375/TxR xenograft; intravenous, 2 mg/kg twice weekly, 3 weeks; reference: vehicle).
`NCc1cc2c(cc1F)C(=O)N(C1CCC(=O)NC1=O)C2` (stereo not shown): “tumour growth inhibition” 16 to 100% (mice, HCC PDX models; oral, 100 mg/kg twice daily, 21 days, 8 of 10 models).
`O=c1[nH]c(=O)n([C@@H]2O[C@H](CO)[C@@H](O)[C@@H]2F)cc1[125I]` has a tumour uptake of 4.3 %ID/g and 4.37 %ID/g (nude mice, RG2 tumour, HSV1-tk expressing RG2 tumour; 2 h post injection).
`C=CCn1c(=O)c2cnc(Nc3ccc(N4CCN(C)CC4)cc3)nc2n1-c1ccc2c(n1)[C@@](O)(CC)CC2`: “tumour volume difference” 127 ± 41.6 mm3 (OVCAR-3 xenograft, NOD/SCID mice; oral, 80 mg/kg, day 56, once daily intermittent).
`N=C(N)NCCC[C@@H](NC(=O)CCOCCOCCNC(=O)[C@H](CCCCNC(=O)CC[C@H](NC(=O)c1ccc(NCc2cnc3nc(N)[nH]c(=O)c3n2)cc1)C(=O)O)NC(=O)CO/N=C/[C@H](F)[C@@H](O)[C@H](O)[C@H](O)CO)C(=O)NCC(=O)N[C@H](CC(=O)O)C(N)=O` [fluorine-18 labelled] has a tumour uptake of 0.88 ± 0.3 %ID/g (nude mice, MDA-MB-231 xenograft, tumour; 2.5 h, together with: unlabelled folic acid 200 µg).
With `O=c1[nH]c(=O)n([C@@H]2O[C@H](CO)[C@@H](O)[C@@H]2F)cc1CCC[18F]` the tumour uptake was 0.19 ± 0.1 %ID/g (nude mice, RG2 tumour, wild-type RG2 tumour; 2 h post injection).

A few entries again:
`C=CC(=O)Nc1cc(Nc2nccc(Nc3cc(Cl)c(F)cc3C(C)(C)O)n2)c(OC)cc1N1CC[C@@H](N(C)C)C1` gave a tumour regression of 87.5% (NCI-H2073 EGFR SVD knock-in xenograft, BALB/c nude mice; oral, 50 mg/kg twice daily, 21 days, regression if TGI above 100 %).
